Published values pooled from the literature.
Numbered parts are unrelated; each lists some results of a single study.

Block 1
Target: Phosphate system positive regulatory protein PHO4, full length, GST-tagged (PHO4, Saccharomyces cerevisiae, UniProt P07270, residues 1-312)
Method: competition protein-binding microarray
Molecule type: double-stranded DNA, one strand shown
Sample: in vitro
Concentration: 2 µM
Setting: whole 60-bp probe, lowest competitor level
With: Cbf1 competitor, 0.05 µM
Reading: higher = stronger binding
Measurement: fluorescence intensity
Shared flanks, not repeated: … GTCTTGATTCGCTTGACGCTGCTG
Construct (chain): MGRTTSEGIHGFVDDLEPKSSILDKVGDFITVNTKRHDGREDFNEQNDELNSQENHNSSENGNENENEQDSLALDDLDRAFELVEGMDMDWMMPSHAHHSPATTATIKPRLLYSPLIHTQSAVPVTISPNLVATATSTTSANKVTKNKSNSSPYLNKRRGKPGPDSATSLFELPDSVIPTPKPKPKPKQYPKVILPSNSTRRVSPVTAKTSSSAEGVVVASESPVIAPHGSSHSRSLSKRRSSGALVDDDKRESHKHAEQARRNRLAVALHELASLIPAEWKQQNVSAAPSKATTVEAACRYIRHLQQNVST
AAATTACTAAGTTGTCACCCAACTTACCCCGTATGA: 3480 a.u.
TCTATTCCGCGGTAACCTATGGTTACGGCCAGATTT: 3030 a.u.
TAAAAATAACACCATCACGTATTTTAACGAATCAGA: 5170 a.u.
CAATTCTTCGGGCGTCACATGACAAATATATAGGGA: 6600 a.u.
CAAAACGTTAGTTTAGTCGTGCTAAACCGCTATTTT: 6430 a.u.
CTTCTGTAAATTTGATCTGTGGGTGGACGCGCCCCG: 4670 a.u.
AAATTACTAAGTTGACCGGTGGGTGACGCCGTATGA: 3910 a.u.
CATACCCAACCTTGCTGGGTGGGTGAAGATATTTGT: 4930 a.u.
GCTGATATCTACGTACATGTGTATACTTGCCAATAT: 7470 a.u.
CGAGTCTAATGACTTGACGTGGCCGTTTTTCTTGTC: 3950 a.u.
CAGAGGAACGAGATAAACGTGCGATCCCTTCAATAA: 12800 a.u.
TCGGTAGGGCCATCTCGCGTGCCAGAACAGACAAGA: 7070 a.u.
GTCTTGTCTCATTGTGGTGTGGGTGTCCCCACTTCA: 5940 a.u.
CGTCCTAGTGATTGTCACTAAACTTCCATGAGGAAG: 4130 a.u.
GGCCCGGTGGGTCCACGCGTGTGTTGCGGTTAGAGC: 9800 a.u.
AGCGACTAAGAAAGTCTTGTGACGGGATGGTGACAA: 3670 a.u.
CTTCTGTAAATTTGCGTAGTGGGTGGACGCGCCCCG: 4630 a.u.
ATGGCCGCTGGTCCTCACGTGTATATATGGAGGGAG: 16700 a.u.
CGGGGTTAAGTTTGCTCCGTGGGTGGCTTGCAGCAG: 5430 a.u.
AGTAGCGATGACTGTCATGAAGATGAAAGGGTGCGG: 3780 a.u.
GAACTGCCGCCGGTGGACGTGCTTTGCGTCCGAGTC: 4650 a.u.
CTAACGAAGGTTTGAGCGGTGGGTGACAAGCCAAGT: 3490 a.u.
CTTTCCCGATCTTGCACGGTGGGTGTAGCACATTTG: 6970 a.u.
AAGGTTCAAAACAAGCACATGTGTGTTTTGTGACGG: 12600 a.u.

Block 2
Target: Fragile X messenger ribonucleoprotein 1, C-terminal low-complexity region (Fmr1, Mus musculus, UniProt P35922)
Method: RNA Bind-n-Seq
Molecule type: RNA
Sample: in vitro
Concentration: 200 nM
Setting: whole 134-nt RNA, ends assumed
With: 150 mM KCl
Reference: input library
Reading: higher = stronger binding
Measurement: log2 enrichment
Shared flanks, not repeated: GGGAGUUCUACAGUCCGACGAUC … UGGAAUUCUCGGGUGUCAAGG
UGGCGCCGUUCGACACCAGGCGGAUCCGCUCUGCAGCACGAACCCAUCUCCAGCCGCAGCCGCAGCCGCCGCCCGGGCCGAGGAGCAGCC: -0.239
CUCAAGUCCUGUGCUACACAUCGUAUGUACCGAAUCGGGCCGGGCCGGCCGGGGAAAGUAUUAUGUUACGCCGUUCGGAUCUGCACUUCC: -0.0929
GUCCUGUGCUACACAUCGUAUGUACCGAAUCGGGGAGGGGUUUUUGGGGAAAAAGGGGAAAGUAUUAUGUUACGCCGUUCGGAUCUGCAC: 0.724
UUUGCAGAGCAGUCUCUGAUGAAGAAUGCCAUAAAAACAUCGGAGGAGUCAUGGAUUGAACAGCAGAUGCUAGAAGACAAGAAACGGGCC: -1.4
GCAGGAAGUAAAAACAAAUCGAAAUGCUUCGGAUAGUGGCAGGGGUGGGGGUUGCUAAGGAAAGGGUGGGAUGGGAGUGGGUAAAGAGUU: 0.0856
CAAGUCCUGUGCUACACAUCGUAUGUACCGAAUCGGGGAAAGGGAAAGGAAAGGGGAAAGUAUUAUGUUACGCCGUUCGGAUCUGCACUU: 0.426
AAGUCCUGUGCUACACAUCGUAUGUACCGAAUCGGAAAAAGGUUUGGUUUUUUUGGAAAGUAUUAUGUUACGCCGUUCGGAUCUGCACUU: -1.03
CCUGUGCUACACAUCGUAUGUACCGAAUCGGGCCCCCCGGGGCCCCCCGGCCCCCCGGGGAAAGUAUUAUGUUACGCCGUUCGGAUCUGC: -0.611
CUGUGCUACACAUCGUAUGUACCGAAUCGGCCCCCCCGGCCCCCCCGGGGCCCCCCCGGGGAAAGUAUUAUGUUACGCCGUUCGGAUCUG: -0.936
UUCUUACAUGUGUAAUCUUCUUCUCCUAGGGCGGCAGAACUCAUGACAAGAACAAGCUCUGUGGUGACACUGGAAGUAGCAAAGCAGGGU: -0.0861
UCAAGUCCUGUGCUACACAUCGUAUGUACCGAAUCGGAAAAAAAGGUUUGGUGGAAAGUAUUAUGUUACGCCGUUCGGAUCUGCACUUCC: -0.845
GCAGGAAGUAAAAACAAAUGGAAAUGCUUCGGAUAGCGGCAGGGGUGGGGGUUGCUAAGGAAAGGGUGGGAUGGGAGUGGGUAAAGAGUU: 0.395
CUCAAGUCCUGUGCUACACAUCGUAUGUACCGAAUCGGGUGGGGUGGGUGGGGAAAGUAUUAUGUUACGCCGUUCGGAUCUGCACUUCCA: 1.02
UGUGCUACACAUCGUAUGUACCGAAUCGGGUUUUUUUGGGGUUUUUUUGGGGUUUUUUUGGGGAAAGUAUUAUGUUACGCCGUUCGGAUC: 0.196

Block 3
Target: RNA binding protein fox-1 homolog 2, RRM domain, GST-SBP tag (RBFOX2, Homo sapiens, UniProt O43251-10, residues 100-194)
Method: RNA Bind-n-Seq
Molecule type: RNA
Sample: in vitro
Concentration: 365 nM
Setting: natural RNA segment, single round, ends assumed
Reference: no-protein control
Reading: higher = stronger binding
Measurement: RBNS enrichment (R)
Shared flanks, not repeated: GGGAGUUCUACAGUCCGACGAUC … UGGAAUUCUCGGGUGCCAA
Residues (chain): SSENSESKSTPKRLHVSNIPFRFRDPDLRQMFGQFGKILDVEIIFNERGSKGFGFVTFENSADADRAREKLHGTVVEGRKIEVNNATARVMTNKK
GCAGAGGCCAUUUUGUUGUUUGUUUGAUGCUGAAGCUGUUGUUAAAAUGCCCCAAACUCCAAGGCAGAUUGUCUGUAUAAUACGCUAUAGCUUUUCACCAUGUGGUGUUU: 1.03
GGUAGGAGUCAGGGCCCAUCCAGACCAGUCACCAUCCAGCCAUGCACUGUCAUCAUCACCCAUAAUGCCUGCAAAGGCCUAGCGGUCCUCAGCCCUGCACAUGAGAGAGG: 0.304
UAUUUUUGGUAACUCCCAUGGCAGCUCCUAGGAUUUCAGCGGUCUGUGGGCCAGAAAGCAGGCACCAGGGCUGACCUCAAGGCCGUAUCAGAGGGCCAAGCAGAGUUCUU: 0.399
GAGGGACACCUGCUUAUUUUCCCCCGUGGGCCUCACUCUAUCCCUGAAAACAGUGAAUGUUAUAUGAGUUUGUUCUCAAGUUCUCUCUAGCCCUUUGGUAGUUUAUUCAU: 0.556
CACCGAAACCCGCGCCCAGGAGUAUGGCUGAGGCCUUGCCCACCCACCUGCCUGGGAAGUGCAGAGUGGAUGGACGGGUUUAGAGGGGAGGGGCGAAGGUGCUGUAAACA: 0.864
CAUCCGUUUCCCCACCUGAUAUGGUUUGGCUGUGUCCCCACCUAAAACUCAUCUUGAAUUGUAGCUCCCAUAAUUGCCAUGUGUUGUGGGAAGGACCCAGUGGGAGAUAA: 1.57
AGUGGGGGAUGGGUCCUCUAGACUUGAGGGGCUACCCUGGGAAGCUGCCGUAGCUUCAGCCAGGCAAGAAAGCUUCCUUCAACCUGCAUAGCCGGUGGGUGAGGAGAUUC: 0.419
UCUGUCUGCUUCCACAGUCUGCUUAAAAAACUGUCUGACUUCGUGAAUAUAGAGACCAAGUUUACCACUUCUGAUGAAGAGACCAAUUAAGAUUCAUUCCUCAUUCUGUU: 0.526
AGUAAACUACAGCUUUGAGUUGGAAAGAAGUCACGGGUUGUAAAACCAUUUGGAUUUUUUUAAAACAAAAGUAUUAAUAAUCUGGAAGACAGUGUUGCCCAGGUCAGGAG: 0.362
UUCUCUCUAUCUGGAAUUUAAUUAAUCGAAAUGAAUUUAUCUGAAUAUAGGAAGCAUAUGCCUACUUGUAAUUUCUAACUCCUUAUGUUUGAAGAGAAACCUCCGGUGUG: 0.615
ACGUAGAGUGCCUGGCACUGGCAAGGACUCAGUGGUCCACUAUUGUGACAGUAAUGGUUAUUACAAUAAAAAUAAUAAAAUCACCAUCAUUCUAUUUUUAACCAAAAGUA: 0.41
GGAUUUCUGUGGAACUUGGCAAAUUUUCAGAGCACCUUCACUCACAUAAUGUCAUUUGAACCUCACAAUGUUCUUGGGAUGGAGUCAGUUGUUCAGGGUCCCCGUGUGUG: 0.38

Block 4
Target: Prothrombin, mature alpha-thrombin (F2, Homo sapiens, UniProt P00734)
Method: aptamer microarray, sandwich
Molecule type: DNA with 2'F-ANA
Sample: in vitro
Concentration: 200 nM
Setting: whole 15-mer aptamer, many near background
With: Cy3 exosite-II aptamer, 400 nM
Reading: higher = stronger binding
Measurement: mean fluorescence intensity
Oligonucleotide: GGTTGGTGTGGTTGG
2'F-ANA at 2 4 8 11 14: 115 a.u.
2'F-ANA at 7 8 9 14: 226 a.u.
2'F-ANA at 5 6 7 10 11 13: 54.9 a.u.
2'F-ANA at 1 3 9 11 14: 102 a.u.
2'F-ANA at 2 4 11 13 14 15: 103 a.u.
2'F-ANA at 1 2 3 5 6 7 9 11 13 14 15: 51.5 a.u.
2'F-ANA at 1 2 3 5 6 7 9 10: 45.5 a.u.
2'F-ANA at 2 4 6 7 8 11 13 14 15: 83.1 a.u.
2'F-ANA at 1 4 7 8 11 12 15: 224 a.u.
2'F-ANA at 3 5 8 14 15: 76.5 a.u.
2'F-ANA at 1 2 5 7 8 9 12 14: 47.6 a.u.
2'F-ANA at 2 3 5 6 8 11 12 13 14: 53.6 a.u.
2'F-ANA at 2 6 10 11 12 13 14: 81.3 a.u.
2'F-ANA at 1 5 6 7 8 10 11 13 15: 74.6 a.u.
2'F-ANA at 2 3 4 6 10 11 12 14: 174 a.u.
2'F-ANA at 3 5 6 10 11 12 14 15: 48.7 a.u.
2'F-ANA at 2 4 5 6 7 8 10 11 12 13 14 15: 50 a.u.
2'F-ANA at 2 4 5 6 7 9 10 12 13: 115 a.u.
2'F-ANA at 1 2 4 5 9 10 15: 44.2 a.u.
2'F-ANA at 1 5 6 8 11 14 15: 45.2 a.u.
2'F-ANA at 1 3 4 5 7 8 11 13 14 15: 48.4 a.u.
2'F-ANA at 4 5 9 10: 42.5 a.u.
2'F-ANA at 1 2 3 6 8 14 15: 76.3 a.u.
2'F-ANA at 7 9 10 15: 164 a.u.
2'F-ANA at 1 2 7 10 12 13: 63.7 a.u.
